Results of several laboratories.
Numbered parts are unrelated; each lists some results of a single study. Substitutions count along the parent as printed.

Set 1
Target: Ras GTPase-activating protein-binding protein 1, full length (G3BP1, Homo sapiens, UniProt Q13283)
Chain of UniProt Q13283 (whole entry, looked up): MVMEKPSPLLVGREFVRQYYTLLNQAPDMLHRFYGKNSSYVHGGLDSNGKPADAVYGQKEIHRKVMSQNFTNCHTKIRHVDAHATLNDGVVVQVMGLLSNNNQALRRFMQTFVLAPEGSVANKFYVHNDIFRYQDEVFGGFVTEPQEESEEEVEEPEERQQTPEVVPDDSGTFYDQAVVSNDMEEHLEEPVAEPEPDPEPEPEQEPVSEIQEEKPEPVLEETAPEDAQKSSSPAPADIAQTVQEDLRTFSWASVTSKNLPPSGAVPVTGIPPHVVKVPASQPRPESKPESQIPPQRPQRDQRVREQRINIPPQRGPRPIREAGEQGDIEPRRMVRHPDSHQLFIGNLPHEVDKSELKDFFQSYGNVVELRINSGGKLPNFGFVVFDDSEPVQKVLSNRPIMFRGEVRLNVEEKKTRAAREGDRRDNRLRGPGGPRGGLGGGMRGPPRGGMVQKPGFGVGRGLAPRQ
Technique: RNA Bind-n-Seq
Form: RNA
Sample: in vitro
Tested at: 200 nM
Notes: whole 134-nt RNA, ends assumed
With: 150 mM KCl
Relative to: input library
Direction: higher = stronger binding
| Strand | log2 enrichment |
| --- | --- |
| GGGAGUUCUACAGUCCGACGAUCUGAUCAGCAAAGCCAAGAUGAGCCUUUGAGAAGCAGAAAAGUGUUUGUGGGGCGCUGUACAGAGGACAUGACUGAGGAUGAGCUGCGGGAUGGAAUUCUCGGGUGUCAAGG | -0.149 |
| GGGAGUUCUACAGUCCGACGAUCUGGCCAAUAGCAUCCUUUUCCAGUCUUCCGGUCUGACAAAUGGAAUAAUAGAAGAAAAGGACAUACAUGAAGAAUUGCCAAAACGGAAAGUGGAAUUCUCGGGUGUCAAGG | -0.288 |
| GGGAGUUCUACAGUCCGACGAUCAAGUCCUGUGCUACACAUCGUAUGUACCGAAUCGGUUUUUUUGGUUUGGUUUUUGGAAAGUAUUAUGUUACGCCGUUCGGAUCUGCACUUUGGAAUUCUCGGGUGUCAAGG | -1.14 |
| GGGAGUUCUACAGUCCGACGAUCUGCCAUAAGCGGCACCGGCACUGCCCGGUUGUCGUGUCCGAGGCCACCAUCGUGGGCGUCCGCAAGACCGGGCAGAUCUGGCCCAACGAUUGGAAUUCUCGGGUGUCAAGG | -1.48 |
| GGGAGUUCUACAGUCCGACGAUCUUUUCAUACCGAUCUAGAGUUCGUCCUUGCGUGGUUUAUGGUGGUGCCGAUAUUGGUCAGCAGAUUCGAGACUUGGAACGUGGAUGCCAUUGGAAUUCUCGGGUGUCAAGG | -0.102 |
| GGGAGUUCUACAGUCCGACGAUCAAGUCCUGUGCUACACAUCGUAUGUACCGAAUCGGCCCCGGCCCCGGGGCCCCGGGGAAAGUAUUAUGUUACGCCGUUCGGAUCUGCACUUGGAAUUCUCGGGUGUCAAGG | -0.552 |
| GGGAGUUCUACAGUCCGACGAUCUUAAUGAUAUAAGUAGAGAGUAGUAUCCUGGUGGAGUUGUAACCACUAUUUUUGUUUUCUAGAUCCCUAUGGUUCAGGAGGCCAGAAAUUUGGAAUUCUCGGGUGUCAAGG | -0.866 |
| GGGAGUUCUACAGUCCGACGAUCUCCUCAAGUCCUGUGCUACACAUCGUAUGUACCGAAUCGGGAGGGAGGAGGGAAAGUAUUAUGUUACGCCGUUCGGAUCUGCACUUCCAGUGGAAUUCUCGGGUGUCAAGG | 1.12 |
| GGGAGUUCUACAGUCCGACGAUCGUCCUGUGCUACACAUCGUAUGUACCGAAUCAAACCCAAAUUUUUUUAAACCCCCAAAAAAGUAUUAUGUUACGCCGUUCGGAUCUGCACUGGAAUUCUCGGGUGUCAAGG | -0.281 |
| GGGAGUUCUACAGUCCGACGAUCGUCCUGUGCUACACAUCGUAUGUACCGAAUCGGGUUUGGGAAAAAGGGUUUUUUUGGGAAAGUAUUAUGUUACGCCGUUCGGAUCUGCACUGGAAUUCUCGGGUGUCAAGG | -0.154 |

Set 2
Target: Max dimerization protein 1, bHLH-zipper, MAX partner unstated (MXD1, Homo sapiens, UniProt Q05195, residues 56-136)
Technique: protein-binding microarray
Form: double-stranded DNA, one strand shown
Sample: in vitro
Tested at: not given
Notes: k-mer, scored over probes, only values ≥0.25
Direction: higher = stronger binding
Residues (chain): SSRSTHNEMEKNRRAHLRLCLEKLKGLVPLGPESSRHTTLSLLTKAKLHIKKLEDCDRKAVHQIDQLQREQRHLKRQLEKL
| Strand | E-score |
| --- | --- |
| AACCGCGT | 0.277 |
| GCACGTTA | 0.331 |
| GCACGGGA | 0.252 |
| ACACGTGC | 0.488 |
| ACGCGGGA | 0.314 |
| CAACCCAC | 0.281 |
| AGCATGCC | 0.354 |
| AGCCATGC | 0.366 |
| CGTGCTGA | 0.303 |
| ACACGTGG | 0.491 |
| CGCAACAA | 0.262 |
| CGTGGTAC | 0.351 |
| GAGGCGCA | 0.252 |
| ACGTGGCT | 0.389 |
| ACGCCCCC | 0.259 |
| CACGCATG | 0.436 |
| TCCCCACA | 0.319 |
| ACGGGGGG | 0.321 |
| CCCCCGCA | 0.342 |

Set 3
Target: RNA binding protein fox-1 homolog 2, RRM domain, GST-SBP tag (RBFOX2, Homo sapiens, UniProt O43251-10, residues 100-194)
Technique: RNA Bind-n-Seq
Form: RNA
Sample: in vitro
Tested at: 365 nM
Notes: natural RNA segment, single round, ends assumed
Relative to: no-protein control
Direction: higher = stronger binding
Residues (chain): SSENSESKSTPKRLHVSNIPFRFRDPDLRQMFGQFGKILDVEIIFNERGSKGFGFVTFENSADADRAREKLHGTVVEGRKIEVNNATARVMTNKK
| Strand | RBNS enrichment (R) |
| --- | --- |
| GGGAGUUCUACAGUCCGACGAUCUAAUAUGCAGUAGUAUAGUGUGGAUCCAUUGCAAUUACUGGAAAAUUGGUUUAAAAUACUAUUUGCAGUGAGACCAUCUUUAGACUUGGAUAUUCUUGAUUCUUAGUUCAUGGAAUUCUCGGGUGCCAA | 0.387 |
| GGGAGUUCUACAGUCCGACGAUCGGAGGGAGGAAGCUUAUUAGGUUCACUGUUGAAUGAUGAUUGAAGAGUACCUGCUGCUGUAUCUUGGAAGAUGACAACAUCCUUUUUCAUUACUGUUUGAUUGAAAAUAAUGGAAUUCUCGGGUGCCAA | 2.28 |
| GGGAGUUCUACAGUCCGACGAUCAUGCAUCAGACCCUGCCAGACGUGGGCCUGCUUCUUGGCUCACCCACGUUUUGCCUUUCUCCUGCCCCAAAUCAGGCAGCUCCCUUGGAGCAGGGUUUCCUCAGAUGAGGUGGAAUUCUCGGGUGCCAA | 0.226 |
| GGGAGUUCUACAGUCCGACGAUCGGAACACAGCCGCUCCCCUCUGCUCUGCACCCCACUCGUGGGGGAACACAGCCGCUCCCCUCUGCUCUGCACCCCACUCGUGGGGGAACACAGCUGCAGCCCACCGCGGAUGGAAUUCUCGGGUGCCAA | 0.237 |
| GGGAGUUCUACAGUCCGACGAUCCUGGGACCCGAGUAGGAGCUAGGACUAGCCAGGACCCGCAGCCGCCUCGUCACCUCCAGUUGGGUGCCUCUGGGUUCCCACUGGCUCUGCCCAGGUGGGGUGGGGUGGCCUGGAAUUCUCGGGUGCCAA | 0.201 |
| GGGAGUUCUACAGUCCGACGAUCUUGUUUCCAAUGUCGGGUUCACUUAAAGGAUUUGACUUACCACCAGAGCAUAGAAAAGCAUGCAAGGAAGACCAGAUGGGCUUAGCAUUGGGAAGACAGAGGGCAAGGAGUGGAAUUCUCGGGUGCCAA | 10.7 |
| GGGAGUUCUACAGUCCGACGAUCUCUAGUUGACUUUUCUCUUAGCCUGAAUGUGGACGUUGAAACAUAUCACUUCAGGGCUUGGAAAAGUCAGUCAACUUGACGUACAUUUUUAGUGACAUUUUAAAAGCAGUUGGAAUUCUCGGGUGCCAA | 0.426 |
| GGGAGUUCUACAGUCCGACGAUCUAGAAAAAAGAAAUGUUAGUAUCUCAAUUACACCAACUGUGCAAAUGAACUUUGAUAAAAUAGAAAUAAUCUACAUUGGCCUUUGUGAAAUCUGGGGAAGAGCUUUAGGAUGGAAUUCUCGGGUGCCAA | 0.547 |
| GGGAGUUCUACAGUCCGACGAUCAAUAUGAGGACUAGGGGCACACAAGAGUCUAGCUUCGUCUCCAGGACUCCCUUGGCUCAGAGUGUGGUGCUAGAAACUGGUCCCCAGCCCAGUCCCAGUACUGCCAUCUUUGGAAUUCUCGGGUGCCAA | 0.443 |
| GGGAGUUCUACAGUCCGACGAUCGUCCCUGUGGCACCUGUAACUGGCCAUAGUGUCUUUCUGGUCUGUGUGUUCUUCCAGCCAGCCUUGGGCUUUGGGCCCAGCCAGGCUCACACCCAGAAAGGGGUGUCCUGUGGAAUUCUCGGGUGCCAA | 0.478 |
| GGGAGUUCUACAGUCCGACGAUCGCACAGGAAGGUGGAAACAAAAUGCCAGGCCUCUGCUCUGAAGAGCAAAACUGCUGUCGCUGCAGUAUCUGAUACCAGACAUCCACAUAUCCACAAGAAGUGCCUCUUAGUGGAAUUCUCGGGUGCCAA | 0.394 |
| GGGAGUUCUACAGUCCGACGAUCGUGCUCAUCUCAUUGAGGAGCAGAUUAAUUUUGGGUAAUAAGUGUGAUCAUUGUUGAACUUCAGCUCCAGUGUCUCUCCAGAAUAAGACAUUGGCAUUCAAAUGUCUAUAUGGAAUUCUCGGGUGCCAA | 0.451 |

Set 4
Target: ABI1, truncated, D143A, DHFR fusion (Arabidopsis thaliana)
Technique: DHFR PCA, deep sequencing
Sample: yeast
Notes: methotrexate growth selection, single substitutions
With: (+)-ABA 2500 µM
Relative to: wild-type fitted maximum
Direction: higher = stronger binding
Starting sequence: PYL1, truncated, DHFR fusion (Arabidopsis thaliana); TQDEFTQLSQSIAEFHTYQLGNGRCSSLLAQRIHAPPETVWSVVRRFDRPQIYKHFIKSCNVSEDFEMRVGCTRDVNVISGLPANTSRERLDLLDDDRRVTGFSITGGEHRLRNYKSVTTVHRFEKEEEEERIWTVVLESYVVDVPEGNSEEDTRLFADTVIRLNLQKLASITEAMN; partner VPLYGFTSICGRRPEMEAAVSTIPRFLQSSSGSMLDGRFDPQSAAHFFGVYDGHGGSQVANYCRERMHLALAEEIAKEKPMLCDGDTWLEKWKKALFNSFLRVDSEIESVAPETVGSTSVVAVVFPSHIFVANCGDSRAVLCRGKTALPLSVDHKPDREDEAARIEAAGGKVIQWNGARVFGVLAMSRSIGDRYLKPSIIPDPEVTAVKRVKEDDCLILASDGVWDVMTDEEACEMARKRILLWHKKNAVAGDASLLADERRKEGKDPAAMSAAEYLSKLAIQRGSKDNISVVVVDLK
| Change | relative binding score |
| --- | --- |
| G81E | 62.3% |
| D92T | 97.8% |
| I133Y | 98.5% |
| R88E | 93.6% |
| D92W | 82.6% |
| F157G | -2.52% |
| G81V | 75.3% |
| K126V | 105% |
| I105P | -20.3% |
| S104A | 90.2% |
| R45I | 42% |
| R49G | 85.4% |
| W134V | 104% |
| Y18K | 95.5% |
| R132N | 108% |
| P36L | 96.9% |
| E67N | 92.3% |
| F15D | 69.4% |
| E89I | 8.41% |
| K54F | 5.27% |
